Measured values from different studies.
Several values in a cell are separate wells, animals, samples, runs or records.
Cell line: THP-1

Under mRNA level, `N#Cc1ccc2c(CN3CCOCC3)cc(-c3ccc([C@H]4CCC(=O)N4)cc3)nc2c1` is recorded as “decreased” (decreased, measured: CCL2; 10 µM, together with: CML-HSA; baseline: vehicle).
`C/C(=N\NC(=O)c1cccc(S(=O)(=O)N2CCN(C)CC2)c1)c1cc(Cl)ccc1O` gave an EC50 of > 2000 nM (differentiation, flow cytometry, measured: CD11b; 96 h).
`CC(C)(N)C(=O)O` has an inhibition of 1.1% (pyroptotic LDH release; 2 µM, 40 min, together with: LPS then nigericin).
The EC50 of `N[C@H]1CC[C@H](N[C@@H]2C[C@H]2c2ccccc2)CC1` is reported as 0.04 nM (differentiation, flow cytometry, measured: CD11b; 96 h).
`O=C1/C(=C/c2ccccc2)C(NC2CCCCC2)c2ccccc21` (stereo not drawn) gave an IC50 of 923 nM (IL-1β secretion, inhibitor, reporter, HEK-Blue, IL-1β; together with: LPS and ATP).
`C[C@@H](O)[C@H](NC(=O)[C@H](CCCNC(=N)N)NC(=O)[C@H](CC(N)=O)NC(=O)[C@H](CC(N)=O)NC(=O)[C@@H](N)CCCNC(=N)N)C(=O)N[C@@H](CO)C(=O)NCC(=O)N[C@@H](Cc1ccccc1)C(=O)N[C@@H](CCCCN)C(=O)N[C@@H](Cc1c[nH]c2ccccc12)C(=O)O`: “active β-catenin level” 1.4 (Western blot; 1.0 µM, 3 days, unit not given, together with: WNT3A; baseline: WNT3A alone).
With `COc1ccc(-c2c(-c3ccc(C#N)c(F)c3)nc(N3CCC(N)CC3)n(C)c2=O)cc1F` the EC50 was 2.34 nM (differentiation, flow cytometry, measured: CD11b; 96 h).
With `CCn1cc(-c2cc(Cn3ccoc3=N)cc3c2CCN([C@@H](C)c2cc(OC)ccn2)C3=O)c(C(F)(F)F)n1` the EC50 was 257 nM (cell growth, inhibitor; 120 h).
With `C[C@H](NC(=O)C(=O)Nc1ccccc1C(C)(C)C)C(=O)N[C@@H](CC(=O)O)C(=O)COc1c(F)c(F)cc(F)c1F` the viability was 41.3% and 32.6% (inhibitor, CellTiter-Glo; 10 µM, together with: staurosporine 1 µM).
With `COc1ccc(CC(=O)O)cc1OC` the inhibition was 12.1% (pyroptotic LDH release; 2 µM, 40 min, together with: LPS then nigericin).
With `CN1CC(Oc2cnc(C#N)cc2-c2ccn3nc(NC(=O)C4CC4)cc3c2)C1` the EC50 was 2910 nM (nuclear translocation, measured: CRTC3; median of experiments).
`Clc1ccc(CCC(Cn2ccnc2)Sc2c(Cl)cccc2Cl)cc1` (stereo not drawn) has an inhibition of 36% (pyroptotic LDH release; 2 µM, 40 min, together with: LPS then nigericin).
For `C=CC(=O)N1CC/C(=C\c2ccc(F)c([N+](=O)[O-])c2)C(=O)/C(=C/c2ccc(F)c([N+](=O)[O-])c2)C1`, the IC50 was 72 nM (pyroptotic cell death, inhibitor, CellTiter-Glo; together with: LPS priming and nigericin).
For `Cc1occc(=O)c1O`, the inhibition was -6.26% (pyroptotic LDH release; 2 µM, 40 min, together with: LPS then nigericin).
`CC1(C)CC[C@]2(NC(=O)C(C)(F)F)CC[C@]3(C)[C@H](C(=O)C=C4[C@@]5(C)C=C(C#N)C(=O)C(C)(C)[C@@H]5CC[C@]43C)[C@@H]2C1` gave an IC50 of 167 nM (pyroptotic cell death, inhibitor, CellTiter-Glo; together with: LPS priming and nigericin).
The inhibition of `C=CCNC(N)=S` is reported as 33.2% (pyroptotic LDH release; 2 µM, 40 min, together with: LPS then nigericin).
With `CC1=C(CO)C(=O)O[C@@H]([C@@H](C)[C@H]2CC[C@H]3[C@@H]4C[C@H]5O[C@]56[C@@H](O)C=CC(=O)[C@]6(C)[C@H]4CC[C@]23C)C1` the IC50 was 208 nM (IL-1β secretion, inhibitor, measured: IL-1β; together with: LPS and ATP).
For `O=C1c2ccccc2-c2ccccc21`, the inhibition was 2.6% (pyroptotic LDH release; 2 µM, 40 min, together with: LPS then nigericin).
For `COC(=O)/C=C/C(=O)OCCN1C(=O)CCC1=O`, the maximum protection was 71.3% (pyroptotic cell death, CellTiter-Glo; together with: LPS priming and nigericin).
`CC1(C)S[C@@H]2[C@H](NC(=O)[C@H](NC(=O)N3CCNC3=O)c3ccccc3)C(=O)N2[C@H]1C(=O)O` gave an inhibition of 28.9% (pyroptotic LDH release; 2 µM, 40 min, together with: LPS then nigericin).
`Nc1ncc(-c2cnn(C3CCNCC3)c2)cc1-c1nnc(CC2CC2)o1` gave an IC50 of 164 nM (cell viability; 72 h).

Repeated from above:
For `C=CC(=O)N1CC/C(=C\c2ccc(F)c([N+](=O)[O-])c2)C(=O)/C(=C/c2ccc(F)c([N+](=O)[O-])c2)C1`, the IC50 was 72 nM (pyroptotic cell death, inhibitor, CellTiter-Glo; together with: LPS priming and nigericin).
For `Cc1occc(=O)c1O`, the inhibition was -6.26% (pyroptotic LDH release; 2 µM, 40 min, together with: LPS then nigericin).
